Assay results of several laboratories.
± marks the error that the study gave.
MT-CYB: Cytochrome b (MT-CYB, Homo sapiens, UniProt P00156)
PDGFRB: Platelet-derived growth factor receptor beta (PDGFRB, Homo sapiens, UniProt P09619)
CTSL: Procathepsin L (CTSL, Homo sapiens, UniProt P07711)
KDR: Vascular endothelial growth factor receptor 2 (KDR, Homo sapiens, UniProt P35968)

COc1ccc(C(=O)CCc2cc(C(CCc3ccc(O)cc3OC)c3ccc(O)cc3)c(O)cc2OC)cc1 (racemic) — IC50 (Prostaglandin E synthase (PTGES, Homo sapiens, UniProt O14684); enzyme activity, inhibitor; microsomes of IL-1β-treated A549 cells): ~1000 nM
Cc1cc(NC(c2ccccc2)(c2ccccc2)c2ccccc2Cl)no1 — IC50 (Intermediate conductance calcium-activated potassium channel protein 4 (KCNN4, Homo sapiens, UniProt O15554); ion current, inhibitor, patch clamp): 1000 nM
CC(C)(C)OC(=O)N1CCC(C(=O)N[C@@H](Cc2ccccc2)C(=O)O)(c2ccccc2)CC1 — IC50 (Gag-Pol polyprotein, integrase (gag-pol, Human immunodeficiency virus 1, UniProt P12497); integrase catalytic activity, inhibitor, HTRF; LEDGF/p75-dependent integration): 600000 nM
O=C1C2=C(Nc3ccccc3SC2c2ccsc2)c2ccccc21 (racemic) — IC50 (MT-CYB; enzyme activity, inhibitor): > 5000 nM
CSCC[C@H](NC(=O)[C@H](Cc1ccccc1)NC(=O)[C@H](CO)NC(=O)CNC(=O)[C@@H](NC(=O)[C@H](C)NC(=O)[C@H](Cc1c[nH]c2ccccc12)NC(=O)[C@H](CC(C)C)NC(=O)[C@@H]1CCC(=O)N1)C(C)C)C(N)=O — IC50 (Neuromedin-B receptor (NMBR, Homo sapiens, UniProt P28336); NMBR activity, cell-based): 1 to 3 nM
CC=CC(CC(=O)O)c1ccc(OCc2ccc(-c3cc(OC)ccc3F)cc2)cc1 (stereo not drawn) — IC50 (Free fatty acid receptor 1 (FFAR1, Homo sapiens, UniProt O14842); binding, SPA; CHO-K1 membranes; together with: [3H]AM-1638): 6.31 nM
CCCCCCCCCCCCCC(=S)NCCCC[C@H](NC(=O)[C@H](CCCNC(=N)N)NC(=O)[C@H](C)N)C(=O)N[C@@H](CO)C(=O)N[C@H](C(=O)O)[C@@H](C)O — IC50 (NAD-dependent protein deacylase sirtuin-6 (SIRT6, Homo sapiens, UniProt Q8N6T7)): 1700 nM
COc1cc2nccc(Oc3ccc(NC(=S)Nc4cccnc4)c(Cl)c3)c2cc1C(N)=O — IC50 (PDGFRB): 54.2 nM
O=C(CNc1nc(NNC(=O)c2ccc(Nc3nc(Nc4ccc(C(=O)NNc5nc(NCC(=O)NO)nc(N6CCCCC6)n5)cc4)nc(Nc4ccc(C(=O)NNc5nc(NCC(=O)NO)nc(N6CCCCC6)n5)cc4)n3)cc2)nc(N2CCCCC2)n1)NO — IC50 (72 kDa type IV collagenase (MMP2, Homo sapiens, UniProt P08253); enzyme activity, inhibitor, fluorescence): 98 nM
Cc1ccccc1CN(CCC(C)C)c1nc(C#N)nc(N2CCOCC2)n1 — IC50 (CTSL; enzyme activity, inhibitor, fluorescence): 14 nM
Cc1cccc(Cn2c(CN3CCN(C(=O)C4CC4)CC3)nc3c2c(=O)n(C)c(=O)n3C)c1 — IC50 (Peroxisomal multifunctional enzyme type 2 (HSD17B4, Homo sapiens, UniProt P51659)): > 57000 nM
CC[C@H](C)[C@@H]1NC(=O)[C@H](CCCNC(=N)N)NC(=O)[C@H](CCCNC(=N)N)NC(=O)[C@H](CC(C)C)NC(=O)[C@@H](NC(=O)[C@H](C)NC(=O)[C@H](C)NC(C)=O)CSCc2ccc3nc4cc(ccc4nc3c2)CSC[C@@H](C(=O)N[C@H](C(=O)N[C@@H](CC(N)=O)C(=O)N[C@@H](CC(C)C)C(=O)N[C@@H](CCCNC(=N)N)C(=O)N[C@@H](CCC(N)=O)C(=O)N[C@@H](CCCCN)C(=O)N[C@@H](CC(C)C)C(=O)N[C@@H](CC(C)C)C(=O)N[C@@H](CC(N)=O)C(N)=O)C(C)C)NC(=O)[C@H](CC(=O)O)NC(=O)CNC1=O — IC50 (Induced myeloid leukemia cell differentiation protein Mcl-1 (MCL1, Homo sapiens, UniProt Q07820); ligand displacement, FP): 111 nM
O=C(O)CCC(=O)NNC(=O)c1ccccc1 — IC50 (Egl nine homolog 1 (EGLN1, Homo sapiens, UniProt Q9GZT9); inhibitor, AlphaScreen; bimodal curve, rough estimate, together with: 2 µM 2-oxoglutarate): > 300000 nM
CC(C)CCN(Cc1ccc(F)cc1)c1nc(C#N)nc(N2CCOCC2)n1 — IC50 (CTSL; enzyme activity, inhibitor, fluorescence): 32 nM
O=C(NCCCNC(=O)c1cc(-c2n[nH]c3ccc(NC(=O)C4CCN(CC(=O)N5CCN(c6ccc(-c7ncccn7)cc6)CC5)C4)cc23)ccn1)OC1CCC=CCCC1 (stereo not drawn) — IC50 (Mitogen-activated protein kinase 1 (MAPK1, Homo sapiens, UniProt P28482); ATF2-GFP phosphorylation, inhibitor, TR-FRET): 22 nM
COc1ccc2c(c1)C(CC(=O)NC(C(=O)NC(CCc1ccccc1)C(=O)NCc1ccc(C)cc1)C(C)O)CC2=O (stereo not drawn) — IC50 (PSMB6/PSMB7 (Homo sapiens, UniProt P28072+Q99436); inhibitor): > 100000 nM
Cc1cc(=O)[nH]c2ccc(OCCCC(=O)N3CCN(C)CC3)cc12 — IC50 (cGMP-inhibited 3',5'-cyclic phosphodiesterase 3A (PDE3A, Homo sapiens, UniProt Q14432); enzyme activity, inhibitor, FP): 3000 nM
CC[C@@H](C)[C@@H](NC(=O)[C@@H](CCCCN)NC(=O)[C@@H](CC(C)C)NC(=O)[C@H](N)[C@H](C)O)C(=O)N[C@@H](C(=O)N[C@H](Cc1c[nH]c2ccccc12)C(=O)O)C(C)C — IC50 (Microtubule-associated protein tau, K18 fragment, monomeric (MAPT, Homo sapiens, UniProt P10636); tau K18 aggregation, inhibitor, thioflavin T fluorescence; pH 7.4, 37 °C, together with: heparin 15 µM): 19600 ± 1400 nM
COc1cc2nccc(Oc3ccc4sc(NCC(C)C)nc4c3)c2cc1C(N)=O — IC50 (KDR): > 10000 nM
C[C@@H]1CC(=O)N(C2CCOCC2)N=C1c1ccc(NC(=O)N2Cc3ccncc3C2)cc1 — IC50 (Nicotinamide phosphoribosyltransferase (NAMPT, Homo sapiens, UniProt P43490); enzyme activity, inhibitor): 1.9 nM
COc1ccc(C2Sc3ccccc3NC3=C2C(=O)c2ccccc23)cc1 (racemic) — IC50 (MT-CYB; enzyme activity, inhibitor): > 5000 nM
Cn1c(=O)oc2cc(S(=O)(=O)N3CCN(C(=O)c4ccc5[nH]ccc5c4)CC3)ccc21 — IC50 (Nucleotide triphosphate diphosphatase NUDT15 (NUDT15, Homo sapiens, UniProt Q9NV35); enzyme activity, inhibitor, absorbance): > 100000 nM
NC1CCC(Nc2nccc(-c3cccnc3Oc3ccc(NS(=O)(=O)C4CCC4)c4ccccc34)n2)CC1 (stereo not drawn) — IC50 (Serine/threonine-protein kinase/endoribonuclease IRE2, RNase domain (ERN2, Homo sapiens, UniProt Q76MJ5); RNase activity, inhibitor; together with: XBP1 mini-substrate): > 20000 nM
CCOC(=O)c1nc2cc(Cl)c(Cl)cc2nc1N1CCN(C(=O)Nc2ccc(N3CCNCC3)cc2)CC1 — IC50 (Phosphoglycerate kinase 1 (PGK1, Homo sapiens, UniProt P00558); enzyme activity, inhibitor, GAPDH-coupled NADH; together with: 1.5 mM ATP and 2 mM 3-PG): 160 ± 10 nM
COc1cc2nccc(Oc3ccc(NC(=S)NCCN(C)C)c(Cl)c3)c2cc1C(N)=O — IC50 (PDGFRB): 62.8 nM
Cc1c(C)n(-c2ccc(Br)cc2)c2ncnc(N3CCC(C(N)C(=O)N4CCCC4)CC3)c12 (stereo not drawn) — IC50 (Protein-arginine deiminase type-4 (PADI4, Homo sapiens, UniProt Q9UM07); enzyme activity, fluorescence quenching; together with: Ca2+ 0.4 mM): 15900 nM
COc1cc2nccc(Oc3ccc(NC(=S)NCC(C)(C)O)c(Cl)c3)c2cc1C(N)=O — IC50 (PDGFRB): 697 nM
C#Cc1ccc2c(=O)[nH]nc(Cc3ccc(F)c(C(=O)N4CCN(C(=O)C=C)CC4)c3)c2c1 — IC50 (Poly [ADP-ribose] polymerase 2 (PARP2, Homo sapiens, UniProt Q9UGN5); enzyme activity, inhibitor): 139 nM
Cc1ccc(NC(=O)CNS(=O)(=O)c2nc(-c3ccc(OC(F)(F)F)cc3)cc(C(F)(F)F)n2)cc1 — IC50 (Bifunctional 3'-5' exonuclease/ATP-dependent helicase WRN (WRN, Homo sapiens, UniProt Q14191); DNA unwinding, inhibitor, TAMRA dequenching; 10 nM full-length enzyme, 500 nM trap DNA, together with: 50 nM DNA substrate, 60 µM ATP): 57 nM
COc1cc2nccc(Oc3ccc4c(c3)CCCN4C(=S)NC3CC3)c2cc1C(N)=O — IC50 (KDR): 75.7 nM
CCc1oc2ccc(OC)cc2c1C(=O)c1cc(Br)c(O)c(Br)c1 — IC50 (Solute carrier organic anion transporter family member 2B1 (SLCO2B1, Homo sapiens, UniProt O94956); transporter uptake, inhibitor, radiometric): 21 nM
O=C(O)c1ccc2[nH]cc(-c3ccc4cc(O)ccc4c3)c2c1 — IC50 (Microtubule-associated protein tau (MAPT, Homo sapiens, UniProt P10636); amyloid aggregation, inhibitor, fluorescence): 24000 nM
COc1cc2ncnc(Oc3ccc(Nc4nccc5[nH]cc(-c6cccc(F)c6)c(=O)c45)cc3F)c2cc1OC — IC50 (Hepatocyte growth factor receptor (MET, Homo sapiens, UniProt P08581); HGF-induced autophosphorylation, inhibitor, ELISA; MKN-45): 601 nM
O=C(Nc1ccc(Cl)c(-c2nc3ncccc3o2)c1)c1cccs1 — IC50 (Nucleoside transporter 1 (Plasmodium vivax, UniProt A5K8B0); [3H]adenosine uptake; target-expressing yeast): 8.3 ± 0.9 nM
O=C(CCCCCCNC(=O)c1cc(C(=O)c2ccccc2)cn1Cc1ccc(F)cc1)NO — IC50 (Histone deacetylase 5 (HDAC5, Homo sapiens, UniProt Q9UQL6); enzyme activity, inhibitor): > 50000 nM
O=C(O)C(CO)NCc1cc(Cl)c(OCc2cccc(-c3ccccc3)c2Br)cc1OCc1cccnc1 (stereo not drawn) — IC50 (PD1-PDL2 (Homo sapiens, UniProt Q15116+Q9BQ51); PD-1/PD-L1 interaction, inhibitor, ELISA): > 10000 nM
C[C@](C(=O)NC1CCC(F)(F)CC1)(c1cncnc1)N(C(=O)[C@H](F)Cl)c1ccc(OC(F)(F)F)cc1 — IC50 (Cytochrome P450 2D6 (CYP2D6, Homo sapiens, UniProt P10635); enzyme activity, inhibitor; 10 (unit not given)): 32800 nM
COc1cc2nccc(Oc3ccc4c(c3)CN(CC(F)F)C(=O)N4)c2cc1C(N)=O — IC50 (KDR): 376 nM
CC(C)CCn1c(CN2CCCN(C(=O)C3CC3)CC2)nc2c1c(=O)n(C)c(=O)n2C — IC50 (Aldehyde dehydrogenase 1A1 (ALDH1A1, Homo sapiens, UniProt P00352)): 320 ± 111 nM
CC(C)CCN(Cc1ccccc1C(F)(F)F)c1nc(C#N)nc(N2CCOCC2)n1 — IC50 (CTSL; enzyme activity, inhibitor, fluorescence): 266 nM
O=C(Nc1ccc(C(=O)Nc2ccc(C(=O)Nc3ccc(S(=O)(=O)O)c4cc(S(=O)(=O)O)cc(S(=O)(=O)O)c34)cc2)cc1)Nc1ccc(C(=O)Nc2ccc(C(=O)Nc3ccc(S(=O)(=O)O)c4cc(S(=O)(=O)O)cc(S(=O)(=O)O)c34)cc2)cc1 — IC50 (Serine protease 1 (PRSS1, Bos taurus, UniProt P00760); enzyme activity, inhibitor, absorbance; pH 7.4): > 180000 nM
CCOCCCOc1cc2nccc(Oc3ccc(NC(=S)NC4CC4)c(Cl)c3)c2cc1C(N)=O — IC50 (KDR): 26.7 nM

Excerpt of the above:
C[C@@H]1CC(=O)N(C2CCOCC2)N=C1c1ccc(NC(=O)N2Cc3ccncc3C2)cc1 — IC50 (Nicotinamide phosphoribosyltransferase (NAMPT, Homo sapiens, UniProt P43490); enzyme activity, inhibitor): 1.9 nM
CC[C@@H](C)[C@@H](NC(=O)[C@@H](CCCCN)NC(=O)[C@@H](CC(C)C)NC(=O)[C@H](N)[C@H](C)O)C(=O)N[C@@H](C(=O)N[C@H](Cc1c[nH]c2ccccc12)C(=O)O)C(C)C — IC50 (Microtubule-associated protein tau, K18 fragment, monomeric (MAPT, Homo sapiens, UniProt P10636); tau K18 aggregation, inhibitor, thioflavin T fluorescence; pH 7.4, 37 °C, together with: heparin 15 µM): 19600 ± 1400 nM
Cc1ccc(NC(=O)CNS(=O)(=O)c2nc(-c3ccc(OC(F)(F)F)cc3)cc(C(F)(F)F)n2)cc1 — IC50 (Bifunctional 3'-5' exonuclease/ATP-dependent helicase WRN (WRN, Homo sapiens, UniProt Q14191); DNA unwinding, inhibitor, TAMRA dequenching; 10 nM full-length enzyme, 500 nM trap DNA, together with: 50 nM DNA substrate, 60 µM ATP): 57 nM
